Experimental data of several laboratories.
Lines come from different studies, so protocols differ. Values joined by “and” are separate records of one study, mostly repeats; a detail may differ. ± marks the error that the study gave.

CSCC[C@H](NC(=O)CNC(=O)[C@H](CCCCN)NC(=O)[C@H](CC(C)C)NC(=O)[C@@H]1CCCN1C(=O)[C@H](CO)NC(=O)[C@H](Cc1c[nH]cn1)NC(=O)[C@H](Cc1c[nH]c2ccccc12)NC(=O)[C@H](CCCNC(=N)N)NC(=O)[C@H](CC(C)C)NC(=O)[C@H](CCCNC(=N)N)NC(=O)[C@H](Cc1c[nH]c2ccccc12)NC(=O)[C@H](CS)NC(=O)CCCCCNC(=O)CN1CCN(CC(=O)O)CCN(CC(=O)O)CCN(CC(=O)O)CC1)C(=O)O [copper-64 labelled]
tissue uptake (male C57BL/6J mice, B16-F10 tumour, small intestine; intravenous, 1.85 MBq, 2 h): 9.76 %ID/g

C=Cc1c(C)c2cc3nc(c(CC(=O)O)c4[nH]c(cc5nc(cc1[nH]2)C(C)=C5CC)c(C)c4C(=O)O)[C@@H](CCC(=O)NCCCC[C@H](NC(C)=O)C(=O)N[C@@H](Cc1ccccc1)C(=O)N[C@@H](Cc1ccccc1)C(=O)N[C@H](C(=O)N[C@@H](CC(C)C)C(=O)N[C@@H](CCCCN)C(=O)N[C@@H](CO)C(=O)NCC(=O)N[C@@H](CCC(N)=O)C(=O)N[C@@H](Cc1ccc(O)cc1)C(=O)N[C@@H](C)C(=O)N[C@@H](CO)C(=O)N[C@@H](Cc1ccc(O)cc1)C(=O)N[C@@H](Cc1c[nH]cn1)C(=O)N[C@@H](CS)C(=O)N[C@@H](Cc1c[nH]c2ccccc12)C(=O)N[C@@H](CS)C(=O)N[C@@H](Cc1c[nH]c2ccccc12)C(=O)N[C@@H](CCCNC(=N)N)C(=O)N[C@@H](CC(=O)O)C(=O)N1CCC[C@H]1C(=O)NCC(=O)N[C@@H](CCCNC(=N)N)C(=O)N[C@@H](CO)C(=O)NCC(=O)NCC(=O)N[C@@H](CO)C(=O)N[C@@H](CCCCN)C(N)=O)C(C)C)[C@@H]3C
blood concentration (mouse, blood; 3 h): 117 µg/mL and 131 µg/mL

CC(C)[C@@H]1NC(=O)CNC(=O)[C@H](CC(N)=O)NC(=O)[C@H](CCCNC(=N)N)NC(=O)[C@H](Cc2ccc(O)cc2)NC(=O)[C@H](C(C)C)NC(=O)[C@@H](NC(=O)[C@@H](NC(=O)[C@H](CC(N)=O)NC(=O)[C@H](Cc2c[nH]c3ccccc23)NC(=O)[C@H](C)NC(=O)[C@H](Cc2ccccc2)NC(=O)CNC(=O)[C@H](CCCCN)NC(=O)[C@H](Cc2ccccc2)NC(=O)[C@H](Cc2ccccc2)NC(=O)[C@H](CCCCN)NC(=O)OCC2c3ccccc3-c3ccccc32)C(C)C)CSSC[C@@H](C(=O)N[C@@H](Cc2c[nH]cn2)C(=O)N[C@@H](CCCNC(=N)N)C(=O)N[C@@H](CCCNC(=N)N)C(=O)N[C@@H](C)C(=O)N[C@@H](CC(N)=O)C(N)=O)NC(=O)[C@H](C(C)C)NC(=O)[C@H](CCCNC(=N)N)NC1=O
calcium (ICR mouse, blood; intramammary, 10 mg/kg, day 5, 3 d dosing): 1.34 ± 0.06 mmol/L

CC(C)(C)C(=O)OCOP(=O)(OCOC(=O)C(C)(C)C)C1CCCN(O)C1=O (stereo not shown)
CC50 (EKVX): > 100 µM

O=C1NC2(CC2)COc2ncc(F)cc2[C@H]2COCCN2c2ccn3ncc1c3n2
monocyte percentage (Sprague-Dawley rat, male, blood; oral, 2.5 mg/kg/day, 4 weeks, end of treatment, subacute toxicity): 2.3 ± 0.8%

CC(C)[C@H](NC(=O)[C@H](Cc1c[nH]c2ccccc12)NC(=O)[C@H](CCCNC(=N)N)NC(=O)[C@H](CCCNC(=N)N)NC(=O)[C@@H](NC(=O)[C@@H](NC(=O)[C@H](CCCNC(=N)N)NC(=O)[C@@H](NC(=O)[C@@H](NC(=O)[C@H](CCCNC(=N)N)NC(=O)[C@H](CCCNC(=N)N)NC(=O)[C@@H](NC(=O)[C@H](Cc1c[nH]c2ccccc12)NC(=O)[C@H](CCCNC(=N)N)NC(=O)[C@H](CCCNC(=N)N)NC(=O)[C@@H](NC(=O)[C@H](CCCNC(=N)N)NC(=O)[C@H](CCCNC(=N)N)NC(=O)[C@@H](NC(=O)[C@H](Cc1c[nH]c2ccccc12)NC(=O)[C@H](CCCNC(=N)N)NC(=O)[C@@H](N)CCCNC(=N)N)C(C)C)C(C)C)C(C)C)C(C)C)C(C)C)C(C)C)C(C)C)C(=O)N[C@@H](CCCNC(=N)N)C(=O)N[C@@H](CCCNC(=N)N)C(=O)O
liver, kidney, spleen weights (Swiss Webster mice; intravenous, dose not given, single dose; relative to: vehicle): no effect

CCCCCCCCCCCCCCCC(=O)OCC(CSC[C@H](N)C(=O)N[C@@H](CO)C(=O)N[C@@H](CCCCN)C(=O)N[C@@H](CCCCN)C(=O)N[C@@H](CCCCN)C(=O)N[C@@H](CCCCN)C(=O)NCCCCCC(=O)N[C@@H](CCCCN)C(=O)N[C@@H](CC(C)C)C(=O)N[C@H](C(=O)N[C@@H](Cc1ccccc1)C(=O)N[C@@H](Cc1ccccc1)C(=O)N[C@@H](Cc1ccc2ccccc2c1)C(=O)O)C(C)C)OC(=O)CCCCCCCCCCCCCCC (stereo partly shown)
serum creatinine (C57BL/6J mouse, serum; intraperitoneal, dose not given): 49.2 µmol/L and 49.6 µmol/L and 49.7 µmol/L and 42.9 µmol/L and 38.3 µmol/L

N=C(N)NCCC[C@@H](NC(=O)[C@H](N)Cc1c[nH]c2ccccc12)C(=O)N[C@H](CCCCN)C(=O)N[C@H](Cc1c[nH]c2ccccc12)C(=O)N[C@H](CCCNC(=N)N)C(=O)N[C@H](CCCCN)C(=O)N[C@H](Cc1c[nH]c2ccccc12)C(=O)N[C@H](CCCNC(=N)N)C(=O)N[C@H](CCCCN)C(=O)N[C@H](Cc1c[nH]c2ccccc12)C(=O)N[C@H](CCCNC(=N)N)C(=O)N[C@H](CCCCN)C(N)=O
organ index (mouse, spleen; intravenous, 30 mg/kg single dose, 7 days): 0.594

CC(=O)N[C@H](C(=O)N[C@@H](CCCC(=O)OC(C)(C)C)C(=O)N[C@@H](CCC1CCCCC1)C(=O)N[C@@H](CC(=O)O)C(=O)COC(=O)c1c(C)cccc1C)C(C)(C)C
blood concentration (C57BL/6N mouse, female, whole blood; intraperitoneal, dose not given, 24 h): 26.2 µM and 35.4 µM and 40.9 µM

COc1ccc([C@@H]2CC(=O)c3c(O)cc(O[C@@H]4O[C@H](CO)[C@@H](O)[C@H](O)[C@H]4O[C@@H]4O[C@@H](C)[C@H](O)[C@@H](O)[C@H]4O)cc3O2)cc1O
faecal recovery (male Sprague-Dawley rats, lean, faeces; oral, 100 mg/kg, 48 h; relative to: oral dose): 0.143 ± 0.02%

CC[C@H](C)[C@H](NC(=O)[C@H](CCCCN)NC(=O)CNC(=O)[C@H](CC(C)C)NC(=O)[C@H](Cc1ccccc1)NC(=O)[C@H](CCCCN)NC(=O)[C@H](CO)NC(=O)[C@H](Cc1ccccc1)NC(=O)[C@H](Cc1c[nH]c2ccccc12)NC(=O)[C@H](CCC(N)=O)NC(=O)[C@@H](NC(=O)[C@H](Cc1ccccc1)NC(=O)CCCCCNC(=O)CN1CCN(CC(=O)O)CCN(CC(=O)O)CCN(CC(=O)O)CC1)C(C)C)C(=O)N[C@@H](CCC(=O)O)C(=O)N1CCC[C@H]1C(=O)N[C@@H](CC(=O)O)C(=O)N[C@H](C(=O)N[C@@H](CO)C(=O)N[C@@H](CCC(N)=O)C(=O)N[C@H](C(=O)N[C@@H](CCC(N)=O)C(=O)N[C@@H](CC(=O)O)C(=O)N1CCC[C@H]1C(=O)N[C@@H](CC(N)=O)C(=O)N[C@@H](CC(=O)O)C(=O)N[C@@H](CCC(N)=O)C(=O)N[C@@H](Cc1ccc(O)cc1)C(=O)N[C@@H](CCC(=O)O)C(=O)N1CCC[C@H]1C(=O)N[C@@H](Cc1ccccc1)C(=O)O)C(C)C)C(C)C [copper-64 labelled]
SUVmean (dynamic PET; mouse, CT26 tumour, untreated, tumour; intravenous, 100 µCi/mouse, 2820 s): 1.21 SUV

CCCCCCCCCCCCCCCC(=O)N[C@@H](CCC(=O)NCCOCCOCCC(=O)NCCOCCOCCC(=O)NCCCC[C@H](NC(=O)[C@H](CC(=O)O)NC(=O)[C@H](CC(C)C)NC(=O)[C@H](Cc1ccc(O)cc1)NC(=O)[C@H](CCCCN)NC(=O)[C@H](CO)NC(=O)[C@H](Cc1ccc(O)cc1)NC(=O)[C@H](CC(=O)O)NC(=O)[C@H](CO)NC(=O)[C@@H](NC(=O)[C@H](Cc1ccccc1)NC(=O)[C@@H](NC(=O)CNC(=O)[C@H](CCC(N)=O)NC(=O)[C@@H](CO)NC(=O)[C@@H](N)Cc1c[nH]cn1)[C@@H](C)O)[C@@H](C)O)C(=O)N[C@@H](CCCNC(=N)N)C(=O)N[C@@H](CCCNC(=N)N)C(=O)N[C@@H](C)C(=O)N[C@@H](CCC(N)=O)C(=O)N[C@@H](CC(=O)O)C(=O)N[C@@H](Cc1ccccc1)C(=O)N[C@H](C(=O)N[C@@H](CCC(N)=O)C(=O)N[C@@H](Cc1c[nH]c2ccccc12)C(=O)N[C@@H](CC(C)C)C(=O)N[C@@H](CC(C)C)C(=O)N[C@@H](CC(N)=O)C(=O)N[C@H](C(=O)NCC(=O)NCC(=O)N1CCC[C@H]1C(=O)N[C@@H](CO)C(=O)N[C@@H](CO)C(=O)NCC(=O)N[C@@H](C)C(=O)N1CCC[C@H]1C(=O)N1CCC[C@H]1C(=O)N1CCC[C@H]1C(=O)N[C@@H](CO)C(N)=O)[C@@H](C)O)C(C)C)C(=O)O
serum enzyme activity (item: AST; rhesus monkey, female; subcutaneous, 60 µg/kg once daily, 28 days): 46.6 ± 13.4 U/L

CN(C)CCCNC(=O)C[C@H](Cc1ccc(F)cc1)NC(=O)[C@@H](Cc1ccc(Cl)cc1Cl)NC(=O)[C@H](N)Cc1ccccc1C#N
remaining compound (CD-1 mouse, liver microsomes; 1 µM, time not given, epoxide hydrolase conditions): 26%

CCc1nn(C)c2nc(-c3ccc(C(=O)O)cc3)nc(NCc3ccccc3)c12
body weight (NSG mice; dose not given, day 6 of treatment): 23.9 g and 22.3 g and 23 g and 23.1 g

CC(=O)NCCCC[C@@H]1NC(=O)[C@H](Cc2c[nH]c3c(C)cccc23)NC(=O)[C@H]([C@@H](C)O)NC(=O)[C@H](CC(N)=O)NC(=O)[C@@H](NC(C)=O)C(C)(C)SSC(C)(C)[C@@H](C(=O)N[C@@H](Cc2ccc(OCCN)cc2)C(=O)N[C@@H](Cc2ccc3ccccc3c2)C(=O)NC2(C(=O)N[C@@H](CCC(=O)O)C(=O)N[C@@H](CC(N)=O)C(=O)N[C@@H](Cc3cccnc3)C(=O)N(C)CC(N)=O)CCOCC2)NC1=O
tissue to plasma ratio (cynomolgus monkey, rectum; intravenous, 1 mg/kg): 80%

C=CC(=O)Nc1cccc(Cn2ncc3cnc(Nc4cnn(CCOC)c4)nc32)c1
serum cholesterol (Sprague-Dawley rat female, serum; oral, 180 mg/kg, day 28, 28-day subacute toxicity): 1.51 ± 0.28 mM

CC1(C)C(=O)N(c2ccc(C#N)c(C(F)(F)F)c2)C(=S)N1c1ccc(C(=O)O)c(F)c1
Tmax (male human, plasma; oral, 80 mg, single dose, fasted): 96 h

Cc1ccc(OCC(=O)N(Cc2cccs2)c2ccn[nH]2)cc1
micronucleated PCEs (in vivo micronucleus; Crl:CD-1(ICR) mice, male, bone marrow polychromatic erythrocytes; oral, 2000 mg/kg/day, 3 days): 0.04 ± 0.04%

C=Cc1c(C)c2cc3nc(c(CC(=O)[O-])c4[n-]c(cc5nc(cc1[n-]2)C(C)=C5CC)c(C)c4C(=O)[O-])C(CCC(=O)[O-])C3C.[Cu+2].[Na+].[Na+].[Na+] (stereo not shown)
blood urea nitrogen (Wistar rat, female; oral, 1000 mg/kg daily, 28 days): 24 ± 9.12 mg/dL

Repeated from above:
CCc1nn(C)c2nc(-c3ccc(C(=O)O)cc3)nc(NCc3ccccc3)c12
body weight (NSG mice; dose not given, day 6 of treatment): 23.9 g and 22.3 g and 23 g and 23.1 g

CC(=O)NCCCC[C@@H]1NC(=O)[C@H](Cc2c[nH]c3c(C)cccc23)NC(=O)[C@H]([C@@H](C)O)NC(=O)[C@H](CC(N)=O)NC(=O)[C@@H](NC(C)=O)C(C)(C)SSC(C)(C)[C@@H](C(=O)N[C@@H](Cc2ccc(OCCN)cc2)C(=O)N[C@@H](Cc2ccc3ccccc3c2)C(=O)NC2(C(=O)N[C@@H](CCC(=O)O)C(=O)N[C@@H](CC(N)=O)C(=O)N[C@@H](Cc3cccnc3)C(=O)N(C)CC(N)=O)CCOCC2)NC1=O
tissue to plasma ratio (cynomolgus monkey, rectum; intravenous, 1 mg/kg): 80%
